Results from different studies.
Each line is one published result; not all experiments were run side by side.
Target: Calcium/calmodulin-dependent protein kinase kinase 1 (CAMKK1, Homo sapiens, UniProt Q8N5S9)
Chain of UniProt Q8N5S9 (whole entry, unmodified, looked up): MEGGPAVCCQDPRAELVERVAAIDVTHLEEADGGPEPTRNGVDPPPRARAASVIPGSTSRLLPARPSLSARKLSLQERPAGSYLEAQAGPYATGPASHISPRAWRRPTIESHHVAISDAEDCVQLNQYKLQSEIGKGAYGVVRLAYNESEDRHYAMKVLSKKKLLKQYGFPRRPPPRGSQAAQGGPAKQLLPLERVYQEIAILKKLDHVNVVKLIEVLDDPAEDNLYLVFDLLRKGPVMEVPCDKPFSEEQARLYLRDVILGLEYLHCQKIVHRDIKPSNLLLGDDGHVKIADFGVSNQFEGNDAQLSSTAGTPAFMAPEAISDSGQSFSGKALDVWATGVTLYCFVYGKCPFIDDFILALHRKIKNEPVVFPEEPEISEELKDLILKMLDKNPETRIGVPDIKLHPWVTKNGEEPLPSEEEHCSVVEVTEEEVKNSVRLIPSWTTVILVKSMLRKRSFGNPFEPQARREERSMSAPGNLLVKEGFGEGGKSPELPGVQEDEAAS

SMILES	assay	setting	scale	endpoint	value
Cc1ccc(-c2c(/C=C(\C#N)C(=O)NC(C)C)n(CCCO)c3ncnc(N)c23)cc1	cell-free assay, competition with immobilised ligand	1 µM		remaining binding	100%
NC(=O)C[C@H]1CCc2sc3ncnc(O[C@H]4CC[C@H](N5CCOCC5)CC4)c3c21	enzyme activity, inhibitor	10 µM		inhibition	4%
CC(C)=CC1OC(C)(C)C2C=C3C(=O)C(Cl)=CC(O)C3C3C(O)C4OC4C(=O)C132 (centres unmarked)	cell-free assay, competition with immobilised ligand	10 µM		remaining binding	96%
C=CC(=O)N1CCCC(n2c(=O)c3ncccc3n(Cc3ccc(Oc4ccccc4)cc3)c2=O)C1 (centres unmarked)	cell-free assay, competition with immobilised ligand	1 µM		remaining binding	100%
CCn1cc(C(=O)O)c(=O)c2c(N)c(F)c(NC3CCCCC3)cc21	kinase activity	0.1 µM, together with: ATP at Km		inhibition	19.9%
CNC(=O)C1CCN(c2cc(C)c(F)cc2NC(=O)c2ccc(-c3cc(O)ccc3C)c(C)c2)CC1	binding, competition with immobilised ligand	1 µM		remaining binding	91%
CNC1C[S+]2CC[S+]3CC[S+](C1)[Ru-4]321([N]=C=S)[n]2c3ccc(OC)cc3c3c4c(c5cc(F)c[n+]1c5c32)C(=O)NC4=O (centres unmarked)	KinomeScan	0.1 µM	reference: untreated	remaining binding	100%
COc1cc(Nc2nc(C)cc(-c3cnn4nc(OC)ccc34)n2)cc(C(F)(F)F)c1	inhibitor	1 µM	reference: control	remaining activity	95%
CCN1CCN(Cc2ccc(C(=O)Nc3ccc(C)c(NCc4cnc5[nH]ccc5c4OC)c3)cc2C(F)(F)F)CC1	binding, competition with immobilised ligand	1 µM		remaining binding	100%
Nc1ncc(-c2cc(-c3cnn(CC(F)(F)F)c3)ncc2F)nc1C(=O)NC1CNCC(F)C1 (centres unmarked)	enzyme activity	1 µM	reference: DMSO control	remaining activity	93%
Nc1ncc2c(n1)-c1c([nH]c3ccc(C4=CCOCC4)cc13)CCC2	binding, competition with immobilised ligand	1 µM		remaining binding	100%

A few entries again:
SMILES	assay	setting	scale	endpoint	value
COc1cc(Nc2nc(C)cc(-c3cnn4nc(OC)ccc34)n2)cc(C(F)(F)F)c1	inhibitor	1 µM	reference: control	remaining activity	95%
CCN1CCN(Cc2ccc(C(=O)Nc3ccc(C)c(NCc4cnc5[nH]ccc5c4OC)c3)cc2C(F)(F)F)CC1	binding, competition with immobilised ligand	1 µM		remaining binding	100%
